Measurements of several laboratories.
Numbered parts are unrelated; each lists some results of a single study. Substitutions count along the parent as printed.

Block 1
Target: Interferon regulatory factor 3, full length, phosphomimetic (IRF3, Homo sapiens, UniProt Q14653, residues 1-427, S386D/S396D/S398D/S402D/T404D/S405D)
Method: protein-binding microarray
Molecule type: double-stranded DNA, one strand shown
Sample: in vitro
Concentration: 2540 nM top
Notes: 60-bp whole probe
Together with: salmon DNA 0.4 mg/ml
Relative to: random background probes
Direction: higher = stronger binding
Quantity: fitted relative affinity
Constant ends, left off below: GCCTAGCAC … GTCTTGATTCGCTTGACGCTGCTG
Construct (chain): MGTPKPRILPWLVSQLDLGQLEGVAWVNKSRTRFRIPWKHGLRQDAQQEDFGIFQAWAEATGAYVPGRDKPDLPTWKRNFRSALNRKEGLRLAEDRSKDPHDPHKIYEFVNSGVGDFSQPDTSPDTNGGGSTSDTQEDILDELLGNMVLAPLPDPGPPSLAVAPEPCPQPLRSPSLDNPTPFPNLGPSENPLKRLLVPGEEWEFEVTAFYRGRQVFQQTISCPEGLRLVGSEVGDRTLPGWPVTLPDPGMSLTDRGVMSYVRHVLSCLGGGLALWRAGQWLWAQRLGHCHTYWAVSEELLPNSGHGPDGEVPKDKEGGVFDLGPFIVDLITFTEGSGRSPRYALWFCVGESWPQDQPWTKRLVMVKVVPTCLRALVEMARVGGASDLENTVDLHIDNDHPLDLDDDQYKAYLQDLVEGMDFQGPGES
GACGATCTCAGTCTCGGGACGTGCTAG: 0.662 z-score
TTAGGTATCGCTCTCGGTTAGTGCTAG: 2.87 z-score
TTAGGTATCTACTATCGGTTAGTGCTA: 0.545 z-score
GAGGGTATCCTTTTCCTGACGTGCTAG: 5.93 z-score
TTAGATTTCCGGACTGGATTAGTGCTA: 1.34 z-score
GACGGTTTCGACTTTCGGCACGTGCTA: 3.72 z-score
TCAGGTCTGTTTCTGATACTGTGCTAG: 2.79 z-score
TTAGGTTTCGACAATCGGTTAGTGCTA: 1.79 z-score
TGAAGAATGCCTTTAATAAGGTGCTAG: -0.271 z-score
CTAGGTATCGGGACTGGGTTAGTGCTA: 1.28 z-score
ATAGGTTTCGGTCTCGGTTAGTGCTAG: 8.86 z-score
TCAGATTACATATATGTTACTGTGCTA: 1.13 z-score
TTAGGAGTGGGTCTCGGTTAGTGCTAG: -0.598 z-score
GACGGACTGGGGACTGGGGCCGTGCTA: -1.12 z-score
GACGATTTCAGTTTCGCGACGTGCTAG: 3.94 z-score
TCATTTCTCCCAAGTCTTACTGTGCTA: 2.48 z-score
ATGAGTCTCAAAATTAGAGAGTGCTAG: -0.197 z-score
GACGGACGGGGGTATCGGGACGTGCTA: -0.0685 z-score
TCAGTTTTCTCATTCGTACTGTGCTAG: 2.37 z-score
TCACATCTCCAAAGTCAGACTGTGCTA: 1.19 z-score
TCATTTTACAATTTGCTACTGTGCTAG: 2.27 z-score
TTAGGACTGTACTTTCGGTTAGTGCTA: 1.92 z-score

Block 2
Target: FOSL2, bZIP domain (human)
Method: DHFR protein complementation
Sample: yeast
Notes: single substitutions, most at no-binding floor
Relative to: wild-type JUN-FOS pair
Direction: higher = stronger binding
Quantity: binding fitness
Parent: JUN, bZIP domain (human); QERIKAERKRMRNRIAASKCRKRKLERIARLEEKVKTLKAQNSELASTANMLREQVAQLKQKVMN; partner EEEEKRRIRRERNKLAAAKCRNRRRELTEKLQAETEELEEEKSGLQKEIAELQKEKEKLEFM
I28V: 0.0564 natural log
L31K: -0.621 natural log
V35R: -0.116 natural log
L52P: -1.25 natural log
K39T: -0.126 natural log
R30T: 0.224 natural log
E32L: 0.0379 natural log
R30H: 0.151 natural log
K39N: -0.367 natural log
L45C: -1.07 natural log
R53G: -0.541 natural log
K36S: 0.0754 natural log
L31H: -0.382 natural log
A46M: 0.0539 natural log
K36R: 0.135 natural log
S47W: 0.0133 natural log
L31S: -0.453 natural log
R30Q: 0.157 natural log
M51D: 0.07 natural log
L31C: -0.353 natural log
E54F: -0.139 natural log
L38T: -0.728 natural log
L52C: -1.27 natural log
A57W: -0.0814 natural log

Block 3
Target: Hepatocyte nuclear factor 3-beta, forkhead domain (FOXA2, Homo sapiens, UniProt Q9Y261, residues 142-269)
Method: protein-binding microarray
Molecule type: double-stranded DNA, one strand shown
Sample: in vitro
Concentration: not given
Notes: k-mer, scored over probes, only values ≥0.25
Direction: higher = stronger binding
Quantity: E-score
Target sequence (chain): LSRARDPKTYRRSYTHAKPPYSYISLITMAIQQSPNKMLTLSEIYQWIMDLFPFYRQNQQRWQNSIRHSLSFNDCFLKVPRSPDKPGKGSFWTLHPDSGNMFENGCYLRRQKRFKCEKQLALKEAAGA
TATTACCA: 0.297
ACTGTTGA: 0.259
ATAGTGTA: 0.301
ATACCTAA: 0.254
ATAAAATG: 0.299
TGTCACAA: 0.25
CCTACACA: 0.27
ACAATACA: 0.354
ATGACAAC: 0.274
CACACACA: 0.27
AATATGAC: 0.335
GCGTATAC: 0.253
ACCATCAC: 0.268
TAGTTTAA: 0.281
ACAGATAC: 0.269
CACACATA: 0.282
ACATTGAT: 0.276
GTACAGTA: 0.267
AACATACA: 0.354
ATGTATAG: 0.292

Block 4
Target: CCNB1, cyclin fold, Cln2 fusion (human)
Method: yeast growth competition, sequencing
Sample: yeast
Notes: weak parent motif
Relative to: not given
Direction: higher = stronger binding
Quantity: normalised enrichment score
Parent: HIRA docking peptide (human); SLSKRKLELEVET
K6A: 0.85
T13A: 0.446
E10A: -0.165
S1A: 0.761
R5K L9F: 0.00788
S3A: -0.408
E12A: 0.225
L9F: 0.0073
R5A L7A: -0.0135
L9A: 0.777

Block 5
Target: RNA binding protein fox-1 homolog 2, RRM domain, GST-SBP tag (RBFOX2, Homo sapiens, UniProt O43251-10, residues 100-194)
Method: RNA Bind-n-Seq
Molecule type: RNA
Sample: in vitro
Concentration: 365 nM
Notes: natural RNA segment, single round, ends assumed
Relative to: no-protein control
Direction: higher = stronger binding
Quantity: RBNS enrichment (R)
Constant ends, left off below: GGGAGUUCUACAGUCCGACGAUC … UGGAAUUCUCGGGUGCCAA
Residues (chain): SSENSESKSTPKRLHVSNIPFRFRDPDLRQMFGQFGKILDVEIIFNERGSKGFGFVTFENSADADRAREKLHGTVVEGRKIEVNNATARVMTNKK
CUCGGGACCCUCCCAGGCAGUUCCCACAGCUCUUGCCUCGGCUCACCAGGGUCACUUCCACUGUCAGGGGCCUGAGGGGGCAGCUGUGGCUGCAGGGCUGCUCUGGACUG: 0.459
UUUGAUAAAGAUUUUAAUUUAUGUAAAACUUCUAAAGCAGAAUCAAAGCUCCUCUUGGGGAAAUGGCAAGUCUUUAGGAUAGGCAAGACCCUGUAUGAAUAGUACCAAAG: 0.522
AAGAGUUCUUAAUAUAUUCUGGAUACAAGUCCUUUUAAGACAUGAUUUGCAAAUAUUUUCUCCCAGUCUGUGGCUUAUCUUUUCCUAAUGGUGUCUUUUGAAAUGCACUU: 0.5
GUGGCGGUGGUGGCAGCAGUGAUCCAUGAGCCUACAGAGGCCCCUCCCCCAGCCAGGUUCUGCUCUGGCUGGGCCCUUGGCUGGACUCCUAUUCAAAUUUAUUUGACGUU: 0.313
UUGGUUGGUUUGUUUUCUAGAAGUACGUUCAGAUGCUUUGGGGAAUGCAAUGUAUGAUUUGCUAGCUCUCUCACCACUUAACUCACUGUGAGGAUAAAUAUGCAUGCUUU: 48.5
ACUUGUUUCCAUUCAAUGACAAUUAAAAUAGCUUGUAAAUGAGGGCAUACAAGCAUUUGCAACAAGUAUUCAAAUAGAGGCUCACAGCGGCAUAAGCUGGACUUUGUCGC: 0.963
CUUUCCUUUUUAUAAAACAACAAAUGGUUCAACUCUGUCUGCAAAUUAACAGCUGAACACCUGCAACUGCAAAUGUUUUUUGAUCCGACGUACUGAAAUAGGAAGUCAUG: 0.39
CAGAUGUCUAUUUGUAUAAUUACUUGAUCUACACAGUGAGGAAAAAAAUGAAUGUAUUUCUGUUUUUGAAGAGAAUAAUUUUUUUCUCUAGGGAGAGGCGAGGUUACAGU: 2.86
CAGGCCUGAUGAAUUUUUAAGACUGCUUUGUUGGUCAUUUGGCUGAUGGCUUCUUAUGUGCAUUCAACAGUUAAAAAUUCCUAAUCGAUUCUGUCAUCAUGCCCCCUCCC: 0.403
AUUGUGAAUCCUGCUGUCUGUGCAGGGCUCAUAGUGAGUGUUCUGUGAGGUGGGUGGAGACUCCUCGGAAGCCCCUGCUUCCAGAAAGCCUGGGAAGAACUGCCCUUCUG: 0.282
AAGGAUGUAGCUGCUGCUUGUCCUGUUCAAGUUGCUGGAGCAGGGGUCAUGUGAGGCCAGGCCUGUAGCUCCUACCUGGGGCCUAUUUCUACUUUCAUUUUGUAUUUCUG: 0.701
GCUGUCUUUUGCUUCUGUUUGAUUUGGUCUGCGUAUCUUUUAAUGUGUCUGUUUUGUUUUGUUUGUUUCGUUUUUAUUUUUCAGUUAAAGCACGCACAGACAUACAUGUC: 3.65

Block 6
Target: Prothrombin, mature alpha-thrombin (F2, Homo sapiens, UniProt P00734)
Method: aptamer microarray, sandwich
Molecule type: DNA with 2'F-ANA
Sample: in vitro
Concentration: 200 nM
Notes: whole 15-mer aptamer, many near background
Together with: Cy3 exosite-II aptamer, 400 nM
Direction: higher = stronger binding
Quantity: mean fluorescence intensity
Oligonucleotide: GGTTGGTGTGGTTGG
2'F-ANA at 2 4 5 6 7 8 10 12 13 14 15: 48.8 a.u.
2'F-ANA at 4 5 7 8 9 10 11 13 14: 67.3 a.u.
2'F-ANA at 3 5 8 11 15: 117 a.u.
2'F-ANA at 2 3 8 9 10: 421 a.u.
2'F-ANA at 1 2 3 4 6 8 11: 138 a.u.
2'F-ANA at 3 4 5 7 8 10 15: 53 a.u.
2'F-ANA at 3 5 7 8 9 13: 99.1 a.u.
2'F-ANA at 1 2 3 5 6 7 8 9 12 13 15: 93.8 a.u.
2'F-ANA at 3 4 7 10 11 12 13 15: 252 a.u.
2'F-ANA at 2 5 6 7 9 11 12 13 15: 156 a.u.
2'F-ANA at 2 4 6 10 12: 124 a.u.
2'F-ANA at 1 4 6 11 12 13: 146 a.u.
2'F-ANA at 1 2 5 10 11 14 15: 49.3 a.u.
2'F-ANA at 7 8 11: 580 a.u.
2'F-ANA at 2 3 5 6 7 8 9 10 11 13 14: 198 a.u.
2'F-ANA at 2 8 9 10 12 15: 164 a.u.
2'F-ANA at 2 3 4 9 10 12 13 14 15: 203 a.u.
2'F-ANA at 1 2 6 10 12 13 15: 66.7 a.u.
2'F-ANA at 2 3 4 9 12 13 15: 610 a.u.
2'F-ANA at 3 6 7 15: 1010 a.u.
2'F-ANA at 2 4 5 9 15: 68.5 a.u.
2'F-ANA at 4 5 6 7 8 10 13 15: 55.3 a.u.
2'F-ANA at 2 3 6 10 11 12 15: 329 a.u.
2'F-ANA at 7 8 9 10 13 14 15: 122 a.u.
2'F-ANA at 3 4 8 13 14: 381 a.u.

Mixed results
PhoQ, residues 284 288 289 292 302 303 QWQEDG
fold induction (PhoP, residues 12 14 15 18 19 SPWRL (Escherichia coli, UniProt P23836); Sort-seq, item: YFP reporter; E. coli; PhoQ-PhoP variant library, together with: 10 µM Mg2+; relative to: high Mg2+ state, higher = stronger signaling): 1.3

A few entries again (block 6):
2'F-ANA at 4 5 7 8 9 10 11 13 14: 67.3 a.u.
2'F-ANA at 3 5 8 11 15: 117 a.u.
2'F-ANA at 2 3 8 9 10: 421 a.u.
2'F-ANA at 1 2 3 4 6 8 11: 138 a.u.
2'F-ANA at 3 4 5 7 8 10 15: 53 a.u.
2'F-ANA at 3 5 7 8 9 13: 99.1 a.u.
2'F-ANA at 1 2 3 5 6 7 8 9 12 13 15: 93.8 a.u.
2'F-ANA at 3 4 7 10 11 12 13 15: 252 a.u.
2'F-ANA at 2 5 6 7 9 11 12 13 15: 156 a.u.
2'F-ANA at 2 4 6 10 12: 124 a.u.
2'F-ANA at 1 4 6 11 12 13: 146 a.u.
2'F-ANA at 1 2 5 10 11 14 15: 49.3 a.u.
2'F-ANA at 7 8 11: 580 a.u.
2'F-ANA at 2 3 5 6 7 8 9 10 11 13 14: 198 a.u.
2'F-ANA at 2 8 9 10 12 15: 164 a.u.
2'F-ANA at 2 3 4 9 10 12 13 14 15: 203 a.u.
